Assay results gathered from unrelated publications.
Protocols differ between the studies behind these lines. Numbers after ± are the reported error. Converted amounts (≈) assume the structure as drawn.

| SMILES | tested on | test | test system | conditions | how to read | quantity | result |
| --- | --- | --- | --- | --- | --- | --- | --- |
| CC1OCC2OC(OC3C(N)CC(N)C(O)C3OC3OC(CO)C(OC4OC(CN)C(O)C(O)C4N)C3O)C(N)C(O)C2O1 (centres unmarked) | ribosome with mitochondrial A site | luciferase translation, cell-free translation | – | – | – | IC50 | 206 ± 112 µg/mL |
| CCCCCCCCOCc1cn(CC2=CC[C@@H]3C(C(=O)OC)=CO[C@@H](O)[C@H]23)nn1 | SK-N-SH | neuroprotection, MTT | – | 0.075 µM, 24 h, together with: 250 µM H2O2 | – | viability | 51.6 ± 1.4% |
| CC[C@H](C)[C@@H]1NC(=O)[C@H](CCCCN)NC(=O)[C@H](CCCCN)NC(=O)[C@H](C)NC(=O)[C@H](C(C)C)NC(=O)[C@H](C)NC(=O)[C@H](CC(C)C)NC(=O)[C@H](CC(C)C)NC(=O)[C@H](C)NC(=O)[C@H](CCCCN)NC(=O)[C@H](CC(C)C)NC(=O)[C@H](CC(N)=O)NC(=O)[C@H](CC(C)C)NC(=O)[C@@H](N)CSSC[C@@H](C(N)=O)NC(=O)[C@H](CC(C)C)NC1=O | H157 | MTT | – | 24 h | – | IC50 | 7.02 µM |
| COC(=O)C1=CO[C@@H](OC(C)=O)[C@@H]2C(Cn3cc(COCc4ccc(OC)c(OC)c4)nn3)=CC[C@H]12 | SK-N-SH | neuroprotection, MTT | – | 0.6 µM, 24 h, together with: 250 µM H2O2 | – | viability | 59 ± 0.21% |
| CCCCCCCCC(=O)NCc1ccc(O)c(OC)c1 | mouse mAb 1-D6 | antibody binding, indirect competitive ELISA | – | together with: coating antigen 3-OVA | – | IC50 | > 4 µg/mL |
| COC(=O)C1=CO[C@@H](O)[C@@H]2C(Cn3cc(-c4ccc(F)cc4)nn3)=CC[C@H]12 | SK-N-SH | neuroprotection, MTT | – | 0.15 µM, 24 h, together with: 250 µM H2O2 | – | viability | 52.6 ± 1.6% |
| CC[C@H](C)[C@H](NC(=O)[C@H](Cc1ccccc1)NC(=O)[C@H](CCC(=O)O)NC(=O)[C@H](CCCCNC(=O)COCC(=O)NCCCOCCOCCOCCCNC(=O)CNC(=O)[C@@H]1CCCN1C(=O)CNC(=O)[C@@H]1CCCN1C(=O)CNC(=O)[C@@H]1CCCN1C(=O)[C@H](CCCCNC(=O)CN(CCN(CCN(CC(=O)O)CC(=O)O)CC(=O)O)CC(=O)O)NC(=O)COCC(=O)NCCCOCCOCCOCCCNC(=O)COCC(=O)NCCOc1ccc(Cl)cc1C(=O)NCCc1ccc(S(=O)(=O)NC(=O)NC2CCCCC2)cc1)NC(=O)[C@H](C)NC(=O)[C@H](C)NC(=O)[C@H](CCC(N)=O)NC(=O)CNC(=O)[C@H](CCC(=O)O)NC(=O)[C@H](CC(C)C)NC(=O)[C@H](Cc1ccc(O)cc1)NC(=O)[C@H](CO)NC(=O)[C@H](CO)NC(=O)[C@@H](NC(=O)[C@H](CC(=O)O)NC(=O)[C@H](CO)NC(=O)[C@@H](NC(=O)[C@H](Cc1ccccc1)NC(=O)[C@@H](NC(=O)CNC(=O)[C@H](CCC(=O)O)NC(=O)[C@H](C)NC(=O)[C@@H](N)Cc1c[nH]cn1)[C@@H](C)O)[C@@H](C)O)C(C)C)C(=O)N[C@@H](C)C(=O)N[C@@H](Cc1c[nH]c2ccccc12)C(=O)N[C@@H](CC(C)C)C(=O)N[C@H](C(=O)N[C@@H](CCCNC(=N)N)C(=O)NCC(=O)N[C@@H](CCCNC(=N)N)C(=O)NCC(N)=O)C(C)C | GLP-1R and SUR1 | saturation binding, time-resolved fluorescence | βTC3 | monovalent mode, GLP-1 domain | – | binding concentration, upper limit | > 30 nM |
| CCCO[C@H]1[C@H](O)[C@@H](N)[C@@H](O[C@H]2[C@H](O[C@@H]3O[C@H](CO)[C@@H](O[C@H]4O[C@@H](CN)[C@@H](O)[C@H](O)[C@H]4N)[C@H]3O)[C@@H](O)[C@H](N)C[C@@H]2N)O[C@@H]1CO | ribosome with mitochondrial A site | luciferase translation, cell-free translation | – | – | – | IC50 | 195 ± 57.2 µg/mL |
| CCCCCCCCOCc1cn(CC2=CC[C@@H]3C(C(=O)OC)=CO[C@@H](OC(C)=O)[C@H]23)nn1 | SK-N-SH | neuroprotection, MTT | – | 0.15 µM, 24 h, together with: 250 µM H2O2 | – | viability | 62.5 ± 0.4% |
| COc1ccc(-n2cc(C(=O)N3C[C@]4(OC(=O)c5ccccc5NC(C)=O)CC[C@H](OC)[C@@]56[C@@H]4C[C@@H]([C@@H]35)[C@@]3(O)C[C@H](OC)[C@H]4C[C@@H]6[C@]3(O)[C@H]4OC)nn2)cc1 | – | immunohistochemistry | ICR mouse, LPS-induced lung injury, lung tissue | oral, 5, 10, 15 mg/kg | – | CD68-positive macrophages | decreased |
| CC(C)CC(O)(CC(C)C)c1cn(C(=O)N2CCCC2)nn1 | mouse T-cells | N-terminal labeled proteins, N-terminal enrichment proteomics, item: OXSR1 | – | 1 nM, 6 h | relative to: DMSO | SILAC ratio | 2.52 ± 0.21 |
| CC[C@H](C)[C@@H]1NC(=O)CNC(=O)[C@@H]2Cc3c([nH]c4ccc(OC(=O)OCc5ccc(NC(=O)[C@H](CCCNC(N)=O)NC(=O)[C@@H](NC(=O)CCc6cn(CC(=O)N[C@H](Cc7ccccc7)C(=O)N[C@H]7CSSC[C@@H](C(=O)N[C@H](C(=O)O)[C@@H](C)O)NC(=O)[C@H]([C@@H](C)O)NC(=O)[C@H](CCCCN)NC(=O)[C@@H](Cc8c[nH]c9ccccc89)NC(=O)[C@H](Cc8ccc(O)cc8)NC7=O)nn6)C(C)C)cc5)cc34)SC[C@H](NC(=O)CNC1=O)C(=O)N[C@@H](CC(N)=O)C(=O)N1C[C@H](O)C[C@H]1C(=O)N[C@@H]([C@@H](C)[C@@H](O)CO)C(=O)N2 | AR-42J | cell growth or viability, MTS | – | – | – | EC50 | 0.0023 µM |
| NC[C@@H]1O[C@H](O[C@H]2[C@@H](O)[C@H](O[C@@H]3[C@@H](O)[C@H](N)C[C@H](N)[C@H]3O[C@H]3O[C@H](CO)[C@@H](OCC(O)CO)[C@H](O)[C@H]3N)O[C@@H]2CO)[C@H](N)[C@@H](O)[C@@H]1O (some centres unmarked) | ribosome with mitochondrial A1555G A site | luciferase translation, cell-free translation | – | – | – | IC50 | 24.3 ± 3.3 µg/mL |
| COC(=O)C1=CO[C@@H](OC(C)=O)[C@@H]2C(Cn3cc(-c4ccc(OC)cc4)nn3)=CC[C@H]12 | SK-N-SH | neuroprotection, MTT | – | 0.6 µM, 24 h, together with: 250 µM H2O2 | – | viability | 54.2 ± 0.8% |
| Cc1c(-c2cccc(C3=NCCN3)c2)oc(-c2cccc(C3=NCCN3)c2)c1C | F21T G-quadruplex DNA | FRET melting competition | – | 1 µM, together with: calf thymus DNA, G4:CT 1:1 | relative to: without competitor | remaining ΔTm | 100% |
| CSCC[C@@H]1NC(=O)[C@H](CCCNC(=N)N)NC(=O)[C@H](Cc2ccc(O)cc2)NC(=O)[C@@H](NC(=O)[C@H](CCCNC(=N)N)NC(=O)[C@H](CCCCN)NC(=O)[C@H](CC(=O)O)NC(=O)[C@H](C)N)CSSC[C@@H](C(=O)N[C@@H](CCCNC(=N)N)C(=O)N[C@@H](Cc2ccc(O)cc2)C(=O)NCC(=O)O)NC(=O)CNC(=O)[C@H](CCCCN)NC(=O)[C@H](CCCCN)NC(=O)[C@@H]2CSSC[C@H](NC1=O)C(=O)N[C@@H](CCC(N)=O)C(=O)N[C@@H](CCCNC(=N)N)C(=O)N[C@@H](Cc1ccc(O)cc1)C(=O)N[C@@H](Cc1c[nH]cn1)C(=O)N[C@@H](CCC(N)=O)C(=O)N[C@@H](CCCNC(=N)N)C(=O)N[C@@H](CCCNC(=N)N)C(=O)N[C@@H](CCC(N)=O)C(=O)N[C@@H](CCCNC(=N)N)C(=O)N[C@@H](CCCNC(=N)N)C(=O)N[C@@H](CCC(N)=O)C(=O)N2 | rat Kv1.6 | conductance-voltage relation, electrophysiology | – | dose not given | relative to: control | V1/2 shift | no effect |
| CC[C@H](C)[C@H](NC(=O)CNC(=O)CNC(=O)[C@@H](NC(=O)[C@@H](N)CCCNC(=N)N)[C@@H](C)CC)C(=O)N[C@@H](CC(C)C)C(=O)N[C@@H](CCCCN)C(=O)N[C@H](C(=O)N[C@@H](CC(C)C)C(=O)N[C@@H](CCCCN)C(=O)N[C@@H](CCCCN)C(=O)N[C@H](C(=O)N[C@@H](CC(C)C)C(=O)N1CCC[C@H]1C(=O)N[C@@H](CCCCN)C(=O)N[C@@H](C)C(=O)N[C@H](C(=O)N[C@@H](CCCCN)C(=O)N[C@@H](C)C(=O)N[C@@H](C)C(=O)N[C@@H](C)C(=O)N[C@@H](CCC(=O)O)C(=O)N[C@@H](CCSC)C(=O)N[C@@H](C)C(=O)N1CCC[C@H]1C(=O)N1CCC[C@H]1C(=O)N[C@@H](CCC(N)=O)C(=O)N[C@@H](CC(N)=O)C(=O)N[C@@H](CCC(=O)O)C(=O)O)[C@@H](C)CC)C(C)C)[C@@H](C)CC | – | electronic von Frey | male C57BL/6J mice, ipsilateral paw | intraplantar, 10 µL of 1.2 mM | – | duration of mechanical hypersensitivity | > 60 min |
| C[C@H](NC(=O)[C@H](CCC(N)=O)NC(=O)[C@H](C)NC(=O)[C@H](CCCCN)NC(=O)[C@H](CCC(N)=O)NC(=O)[C@H](C)NC(=O)[C@H](CCCCN)NC(=O)[C@H](CCC(N)=O)NC(=O)[C@H](C)NC(=O)[C@H](CCC(N)=O)NC(=O)[C@H](CCCCN)NC(=O)[C@H](C)NC(=O)[C@H](CCC(N)=O)NC(=O)[C@H](CCCCN)NC(=O)[C@H](C)NC(=O)[C@H](CCC(N)=O)NC(=O)[C@H](C)NC(=O)[C@H](CCCCN)NC(=O)[C@H](CCC(N)=O)NC(=O)[C@H](C)NC(=O)[C@H](CCCCN)NC(=O)[C@H](CO)NC(=O)[C@H](Cc1ccc(O)cc1)NC(=O)CNC(=O)CNC(=O)CN)C(=O)N[C@@H](CCCCN)C(=O)N[C@@H](CCC(N)=O)C(=O)N[C@@H](C)C(=O)N[C@@H](CCCCN)C(=O)N[C@@H](CCC(N)=O)C(=O)O | – | circular dichroism, item: enoxaparin concentration | PBS | 0.05 mg/mL | – | transition midpoint | ~100 µM |
| C=CCCCCCCCCCOCc1cn(CC2=CC[C@@H]3C(C(=O)OC)=CO[C@@H](OC(C)=O)[C@H]23)nn1 | SK-N-SH | neuroprotection, MTT | – | 0.6 µM, 24 h, together with: 250 µM H2O2 | – | viability | 75.3 ± 0.5% |
| CSC(=NNC(=O)c1ccc([N+](=O)[O-])cc1)SC | Mycobacterium | – | An5 | – | – | MIC | 6.2 µg/mL (≈ 21.7 µM) |

For quick reference, copied from above:
| SMILES | tested on | test | test system | conditions | how to read | quantity | result |
| --- | --- | --- | --- | --- | --- | --- | --- |
| CSC(=NNC(=O)c1ccc([N+](=O)[O-])cc1)SC | Mycobacterium | – | An5 | – | – | MIC | 6.2 µg/mL (≈ 21.7 µM) |
